Experimental data gathered from unrelated publications.
Lines come from different studies, so protocols differ. Numbers after ± are the reported error.
Target: Melanocyte-stimulating hormone receptor (Mc1r, Mus musculus, UniProt Q01727)
Sequence of UniProt Q01727 (whole entry, looked up): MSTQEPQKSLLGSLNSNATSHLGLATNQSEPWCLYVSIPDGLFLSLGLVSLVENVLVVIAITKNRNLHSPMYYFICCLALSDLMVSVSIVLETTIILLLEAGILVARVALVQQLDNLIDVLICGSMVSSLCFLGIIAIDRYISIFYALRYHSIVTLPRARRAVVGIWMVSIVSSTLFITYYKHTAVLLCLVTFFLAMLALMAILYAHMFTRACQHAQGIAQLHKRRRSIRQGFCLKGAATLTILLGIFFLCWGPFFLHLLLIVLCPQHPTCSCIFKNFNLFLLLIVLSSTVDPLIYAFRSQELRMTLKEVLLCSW

SMILES | assay | measurement | value
CCCC[C@H](NC(=O)CNC(=O)CNC(=O)CNC(=O)CNC(=O)CNC(=O)[C@H](CS)NC(C)=O)C(=O)N[C@H]1CC(=O)NCCCC[C@@H](C(N)=O)NC(=O)[C@H](Cc2c[nH]c3ccccc23)NC(=O)[C@H](CCCNC(=N)N)NC(=O)[C@@H](Cc2ccccc2)NC(=O)[C@H](Cc2c[nH]cn2)NC1=O | ligand displacement, radioligand | IC50 | 1.2 nM
CCCC[C@H](NC(=O)CNC(=O)[C@H](CO)NC(=O)CNC(=O)c1ccc(NN)nc1)C(=O)N[C@H]1CC(=O)NCCCC[C@@H](C(N)=O)NC(=O)[C@H](Cc2c[nH]c3ccccc23)NC(=O)[C@H](CCCNC(=N)N)NC(=O)[C@@H](Cc2ccccc2)NC(=O)[C@H](Cc2c[nH]cn2)NC1=O | ligand displacement, radioligand | IC50 | 0.8 nM
CCCC[C@H](NC(=O)CNC(=O)CNC(=O)CNC(=O)CNC(=O)CNC(=O)CS)C(=O)N[C@H]1CC(=O)NCCCC[C@@H](C(N)=O)NC(=O)[C@H](Cc2c[nH]c3ccccc23)NC(=O)[C@H](CCCNC(=N)N)NC(=O)[C@@H](Cc2ccccc2)NC(=O)[C@H](Cc2c[nH]cn2)NC1=O | ligand displacement, radioligand | IC50 | 1 nM
C[C@H](NC(=O)[C@H](CC(N)=O)NC(=O)[C@H](Cc1c[nH]c2ccccc12)NC(=O)[C@H](CCCNC(=N)N)NC(=O)[C@@H](Cc1ccccc1)NC(=O)[C@H](Cc1c[nH]cn1)NC(=O)[C@H](CN=[N+]=[N-])NC(=O)[C@@H](N)Cc1ccc(O)cc1)C(=O)N[C@@H](Cc1ccccc1)C(=O)N[C@@H](CN=[N+]=[N-])C(=O)N[C@@H](Cc1ccc(O)cc1)C(N)=O | agonist | EC50 | 5 ± 0.24 nM
CCCC[C@H](NC(=O)CNC(=O)CNC(=O)CN1CCN(CC(=O)O)CCN(CC(=O)O)CC1)C(=O)N[C@H]1CC(=O)NCCCC[C@@H](C(N)=O)NC(=O)[C@H](Cc2c[nH]c3ccccc23)NC(=O)[C@H](CCCNC(=N)N)NC(=O)[C@@H](Cc2ccccc2)NC(=O)[C@H](Cc2c[nH]cn2)NC1=O | ligand displacement, radioligand | IC50 | 0.9 nM
CC(C)[C@H](NC(=O)[C@@H]1CCCN1C(=O)[C@H](CCCNC(=N)N)NC(=O)[C@H](CS)NC(=O)[C@H](Cc1c[nH]c2ccccc12)NC(=O)[C@H](CCCNC(=N)N)NC(=O)[C@@H](Cc1ccccc1)NC(=O)[C@H](Cc1c[nH]cn1)NC(=O)[C@H](CCC(=O)O)NC(=O)[C@H](CS)NC(=O)[C@H](CS)NC(=O)CNC(=O)[C@@H]1CC(=O)N[C@@H](CCCNC(=N)N)C(=O)NCC(=O)N[C@@H](CC(=O)O)C(=O)N[C@H](Cc2ccc(O)cc2)C(=O)N1)C(N)=O | ligand displacement, radioligand | IC50 | 1.5 nM
CC(C)[C@H](NC(=O)[C@@H]1CCCN1C(=O)[C@H](CCCNC(=N)N)NC(=O)[C@H](CS)NC(=O)[C@H](Cc1c[nH]c2ccccc12)NC(=O)[C@H](CCCNC(=N)N)NC(=O)[C@@H](Cc1ccccc1)NC(=O)[C@H](Cc1c[nH]cn1)NC(=O)[C@H](CCC(=O)O)NC(=O)[C@H](CS)NC(=O)[C@H](CS)NC(=O)CCNC(=O)[C@@H]1CC(=O)N[C@@H](CCCNC(=N)N)C(=O)NCC(=O)N[C@@H](CC(=O)O)C(=O)N[C@H](Cc2ccc(O)cc2)C(=O)N1)C(N)=O | ligand displacement, radioligand | IC50 | 0.8 nM
C[C@H](NC(=O)[C@H](CC(N)=O)NC(=O)[C@H](Cc1c[nH]c2ccccc12)NC(=O)[C@H](CCCNC(=N)N)NC(=O)[C@@H](Cc1ccccc1)NC(=O)[C@H](Cc1c[nH]cn1)NC(=O)[C@H](CCCN=[N+]=[N-])NC(=O)[C@@H](N)Cc1ccc(O)cc1)C(=O)N[C@@H](Cc1ccccc1)C(=O)N[C@@H](CCCN=[N+]=[N-])C(=O)N[C@@H](Cc1ccc(O)cc1)C(N)=O | agonist | EC50 | 138 ± 18 nM
